Assay results gathered from unrelated publications.
Each line is one published result; not all experiments were run side by side. “And” joins repeats or separate records; there may be more than shown. Numbers after ± are the reported error.

SMILES | cell line | assay | system | setting | scale | quantity | value
N#C[C@H](C[C@@H]1CCCNC1=O)NC(=O)[C@H](CC1CC1)NC(=O)c1cc2cccc(Cl)c2[nH]1 | cryopreserved human hepatocytes | refers to: CYP2C8 |  | 10 µM, 72 h | relative to: vehicle | mRNA level | ≤ 4.7 fold
CC[C@H](C)[C@H](NC(=O)CNC(=O)[C@H](C)NC(=O)[C@@H](NC(=O)[C@@H](NC(=O)[C@@H](NC(=O)[C@H](CCCNC(=N)N)NC(=O)[C@@H](NC(=O)[C@@H](NC(=O)[C@@H](NC(=O)[C@@H]1CCCN1C(=O)[C@H](Cc1c[nH]c2ccccc12)NC(=O)[C@@H](NC(=O)[C@H](CCCNC(=N)N)NC(=O)[C@H](CCCCN)NC(=O)[C@@H](NC(=O)[C@@H](N)CCCNC(=N)N)[C@@H](C)CC)C(C)C)C(C)C)C(C)C)[C@@H](C)CC)[C@@H](C)O)C(C)C)C(C)C)C(=O)N[C@@H](CC(N)=O)C(=O)N[C@@H](CC(C)C)C(=O)N[C@@H](Cc1ccc(O)cc1)C(=O)N[C@@H](CCCNC(=N)N)C(=O)N[C@@H](C)C(=O)N[C@H](C(=O)N[C@@H](CCCCN)C(=O)N[C@@H](CCCNC(=N)N)C(=O)N[C@@H](CCCCN)C(=O)O)[C@@H](C)CC | rat erythrocytes | haemolysis |  | 1 h, 37 °C, 2% erythrocytes in PBS |  | HC50 | 2.42 log10 µg/mL
CC[C@H](C)[C@H](NC(=O)[C@H](C)NC(=O)[C@H](Cc1c[nH]cn1)NC(=O)CNC(=O)CNC(=O)CNC(=O)c1ccc2c(c1)C(=O)OC21c2ccc(O)cc2Oc2cc(O)ccc21)C(=O)N[C@@H](Cc1ccc(O)cc1)C(=O)N1CCC[C@H]1C(=O)N[C@@H](CCCNC(=N)N)C(=O)N[C@@H](Cc1c[nH]cn1)C(N)=O | hCMEC/D3 monolayers | BBB permeability, Transwell, refers to: CF-labelled compound | EGM-2 medium | concentration not given, 3 h, apical to basal | relative to: fluorescence added apically | transport ratio | 12.9%
Cc1cc2c(c(O)c1O)C(=O)c1c(O)cc(O)cc1C2=O | HepaRG co-cultured with HK-2 | MTT |  | 33.33 µM, 24 h | relative to: untreated control | cell viability | 51.8 ± 7.56%
C=C(C)[C@@]12C[C@@H](COC(=O)c3ccccc3)[C@@]34OC5(O[C@@H]1[C@@H]3[C@@H]1O[C@]1(CO)[C@@H](O)[C@@]1(O)[C@H]4[C@H]([C@H](C)[C@@H]1OC(=O)c1ccccc1)[C@H](C)CCCCCC[C@H]5O)O2 | MT-4 | cell viability |  |  |  | IC50 | 4.13 ± 0.43 µM
Oc1ccc(C(c2ccc(O)cc2)(C(F)(F)F)C(F)(F)F)cc1 | HepG2 spheroids, dissociated | annexin V-FITC/PI flow cytometry |  | 0.1 µM, 24 h |  | early apoptotic cells | 17.4 ± 7.94%
CC[C@H](C)[C@H](NC(=O)CN)C(=O)N[C@@H](CC(C)C)C(=O)N[C@@H](CC(=O)O)C(=O)N[C@@H](C)C(=O)N[C@H](C(=O)N[C@@H](CCCCN)C(=O)N[C@@H](C)C(=O)N[C@H](C(=O)N[C@@H](C)C(=O)N[C@@H](CCCCN)C(=O)N[C@@H](C)C(=O)N[C@H](C(=O)N[C@@H](CCCCN)C(=O)N[C@@H](C)C(=O)N[C@@H](CCCCN)C(=O)N[C@@H](C)C(=O)NCC(N)=O)[C@@H](C)CC)[C@@H](C)CC)[C@@H](C)CC | sheep red blood cells |  |  | 256 µM, 1 h, 37 °C | relative to: Triton X-100 | hemolysis | 28%
O=C(O)C(F)(F)C(F)(F)C(F)(F)F | hTERT-RPTEC-OAT1 |  |  | concentration not given, Transwell, basolateral-to-apical addition |  | LDH release | 17.8 mU/mL and 10 mU/mL and 13.8 mU/mL and 18.6 mU/mL
CC[C@H](C)[C@H](NC(=O)[C@H](CCCCN)NC(=O)[C@H](CCC(N)=O)NC(=O)[C@@H](NC(=O)[C@@H](NC(=O)[C@H](CCCNC(=N)N)NC(=O)[C@H](CCCCN)NC(=O)[C@H](Cc1ccccc1)NC(=O)CN)[C@@H](C)CC)C(C)C)C(=O)N[C@@H](CCCNC(=N)N)C(=O)N[C@@H](CC(=O)O)C(=O)N[C@@H](Cc1ccccc1)C(=O)N[C@@H](CC(C)C)C(=O)N[C@@H](CCCNC(=N)N)C(=O)N[C@@H](CC(N)=O)C(=O)N[C@@H](CC(C)C)C(=O)N[C@H](C(N)=O)C(C)C | HaCaT | cell viability, MTS |  | 1 h, 37 °C, 10% FBS |  | LC50 | 40 µM
O=C(O)C(F)(F)C(F)(F)C(F)(F)C(F)(F)C(F)(F)C(F)(F)C(F)(F)C(F)(F)C(F)(F)F | hTERT-RPTEC-OAT1 |  |  | concentration not given, Transwell, basolateral-to-apical addition |  | LDH release | 9.86 mU/mL and 12.1 mU/mL and 12.3 mU/mL and 15 mU/mL
CC(C)C[C@H](NC(=O)[C@@H](NC(=O)[C@H](CCCNC(=N)N)NC(=O)[C@H](CCCCN)NC(=O)[C@H](CCCCN)NC(=O)CNC(=O)CNC(=O)CNC(=O)c1ccc2c(c1)C(=O)OC21c2ccc(O)cc2Oc2cc(O)ccc21)[C@@H](C)O)C(=O)N[C@@H](CCCNC(=N)N)C(=O)N[C@@H](CCCCN)C(=O)N[C@@H](CC(N)=O)C(=O)N[C@@H](CC(=O)O)C(=O)N[C@@H](CCCNC(=N)N)C(=O)N[C@@H](CCCCN)C(=O)N[C@@H](CCCCN)C(=O)N[C@@H](CCCNC(=N)N)C(=O)N[C@@H](CS)C(N)=O | hCMEC/D3 monolayers | BBB permeability, Transwell, refers to: CF-labelled compound | EGM-2 medium | concentration not given, 2 h, apical to basal | relative to: fluorescence added apically | transport ratio | 5.3%
Oc1ccc(C2(c3ccc(O)cc3)c3ccccc3-c3ccccc32)cc1 | HepG2 spheroids | annexin V-FITC/PI flow cytometry |  | 0.10 µM, 96 h |  | necrotic cells | 46 ± 26.5%
O=S(=O)(O)C(F)(F)C(F)(F)C(F)(F)C(F)(F)C(F)(F)C(F)(F)C(F)(F)C(F)(F)F | hTERT-RPTEC-OAT1 |  |  | concentration not given, Transwell, basolateral-to-apical addition |  | LDH release | 64.9 mU/mL and 16.8 mU/mL and 11.7 mU/mL and 58.6 mU/mL
CN(N=O)[C@H]1CC[C@@H](c2ccc(Cl)c(Cl)c2)c2ccccc21 | TK6 expressing CYP2B6 |  |  | 0.08 µM, 4 h, without S9 | relative to: vehicle | relative survival | 26.6%
Nc1nc2nc[nH]c2c(=S)[nH]1 | MRC-5, mock-infected | nuclei count |  | 96 h |  | LD50 | 25.8 µM
COc1ccc2c(c1OC)C(=O)c1c(cc(C)c(O)c1OC)C2=O | HepaRG co-cultured with HK-2 | MTT |  | 66.67 µM, 48 h | relative to: untreated control | cell viability | 85.2 ± 2.71%
CCCCC1CNC2CCc3ccc(OC)cc3C12.Cl (racemic) | MDCK-MDR1 cells |  |  |  |  | efflux ratio | 1.26
CC(=O)OC[C@H]1O[C@@H](Oc2cc(O)cc3cc4oc(C)cc(=O)c4c(O)c23)[C@H](O)[C@@H](O)[C@@H]1O | HepaRG co-cultured with HK-2 | MTT |  | 266.67 µM, 48 h | relative to: untreated control | cell viability | 46.6 ± 3.51%
CC[C@H](C)[C@H](NC(=O)[C@H](C)NC(=O)[C@H](CCCNC(=N)N)NC(=O)[C@H](CCCNC(=N)N)NC(=O)[C@@H](NC(=O)[C@H](CO)NC(=O)[C@H](CC(N)=O)NC(=O)[C@@H](NC(=O)[C@H](Cc1ccccc1)NC(=O)[C@H](CO)NC(=O)[C@H](CCCCN)NC(=O)[C@@H](NC(=O)[C@H](Cc1ccccc1)NC(=O)[C@H](CCCCN)NC(=O)[C@@H](N)C(C)C)C(C)C)[C@@H](C)CC)[C@@H](C)CC)C(=O)N[C@@H](CC(N)=O)C(=O)N[C@@H](CCCCN)C(=O)N[C@@H](Cc1ccc(O)cc1)C(=O)N1CCC[C@H]1C(=O)N1CCC[C@H]1C(=O)N[C@H](C(=O)N[C@@H](CC(N)=O)C(=O)N[C@@H](CC(C)C)C(=O)N[C@@H](CCCCN)C(=O)N[C@H](C(=O)N[C@@H](CCCCN)C(=O)N[C@@H](CS)C(=O)N[C@@H](CC(N)=O)C(=O)N[C@@H](CCCNC(=N)N)C(=O)N[C@@H](CC(C)C)C(=O)N[C@@H](CC(N)=O)C(=O)N[C@@H](CO)C(=O)N[C@H](C(=O)N[C@@H](CC(=O)O)C(=O)N1CCC[C@H]1C(=O)N[C@@H](CCCCN)C(=O)N[C@@H](CCC(N)=O)C(=O)N1CCC[C@H]1C(=O)N1CCC[C@H]1C(=O)N[C@@H](CCCNC(=N)N)C(=O)N1CCC[C@H]1C(=O)N[C@@H](Cc1ccccc1)C(=O)N[C@@H](CCCNC(=N)N)C(=O)N[C@@H](CO)C(=O)N[C@@H](Cc1ccccc1)C(=O)N[C@H](C(=O)O)C(C)C)[C@@H](C)CC)[C@@H](C)CC)[C@@H](C)CC | HaCaT | cell viability, MTT |  |  |  | CC50 | 34.8 µM
O=S(=O)(Nc1ccc(-c2n[nH]c(=S)o2)cc1)c1ccc(C(F)(F)F)cc1 | HEK293T | MTT |  | 100 µM, 24 h |  | viability | 62% and 62.4%
O=C1c2ccccc2C(=O)c2ccccc21 | HepaRG co-cultured with HK-2 | MTT |  | 133.33 µM, 48 h | relative to: untreated control | cell viability | 34 ± 7.97%
CC[C@H](C)[C@H](N)C(=O)N[C@@H](CCCNC(=N)N)C(=O)N[C@H](C(=O)N[C@@H](Cc1c[nH]c2ccccc12)C(=O)N[C@@H](Cc1ccccc1)C(=O)N[C@H](C(=O)N[C@@H](CCCCN)C(=O)N[C@H](C(=O)N[C@@H](CCCNC(=N)N)C(=O)N[C@@H](CCCCN)C(=O)N[C@@H](Cc1c[nH]c2ccccc12)C(=O)N[C@@H](CCCCN)C(=O)N[C@@H](C)C(=O)N[C@H](C(=O)N[C@@H](Cc1ccc(O)cc1)C(=O)N[C@@H](Cc1c[nH]cn1)C(=O)N[C@H](C(N)=O)[C@@H](C)O)[C@@H](C)CC)C(C)C)[C@@H](C)CC)C(C)C | rat erythrocytes |  |  | 200 µM, 60 min, 37 °C |  | hemolysis | 29.9 ± 11.6%
CC1=C(O)C(=O)C=C2C1=CC=C1[C@@]2(C)CC[C@@]2(C)[C@@H]3C[C@](C)(C(=O)O)CC[C@]3(C)CC[C@]12C | COS-7 | WST-8 |  | 10 µM, 24 h, 0.1% DMSO, unit not given | relative to: vehicle control | metabolic activity | 0.6 ± 0.44
COc1cc(C=CC(=O)O)ccc1OC(C)=O | HaCaT | MTT |  | 24 h, 10% FBS |  | subcytotoxic concentration | 50 µM
c1ccc2c(c1)ccc1c3ccccc3ccc21 | MCF7 AREc32 cells | cell confluency, IncuCyte imaging |  | 24 h, nominal concentration |  | IC10 | > 6.88 µM
O=c1ccc2ccccc2o1 | HepaRG 3D spheroids | mitochondrial mass |  | 72 h, high-content imaging |  | point of departure | 549 µM
Nc1ccn(C[C@@H](CO)OCP(=O)(O)O)c(=O)n1.O.O | HEL | cell morphology |  |  |  | minimal cytotoxic concentration | > 250 µM
CC[C@H](C)[C@H](NC(=O)[C@H](CCC(=O)O)NC(=O)[C@H](Cc1ccccc1)NC(=O)[C@H](CO)NC(=O)[C@H](CCCCN)NC(=O)[C@H](CCCCN)NC(=O)[C@H](CC(C)C)NC(=O)[C@H](CCCNC(=N)N)NC(=O)[C@H](CC(C)C)NC(=O)[C@@H]1CCCN1C(=O)[C@@H]1CCCN1C(=O)[C@@H](N)Cc1c[nH]cn1)C(=O)N[C@@H](CC(C)C)C(=O)N[C@H](C(=O)N[C@@H](CCCNC(=N)N)C(=O)N[C@@H](CCCCN)C(=O)N1CCC[C@H]1C(=O)N[C@@H](CCSC)C(=O)N[C@@H](CO)C(=O)N[C@@H](CO)C(=O)N[C@@H](CCCCN)C(=O)N1CCC[C@H]1C(=O)N[C@@H](CCCCN)C(=O)N1CCC[C@H]1C(=O)N1CCC[C@H]1C(=O)N1CCC[C@H]1C(=O)N[C@@H](CCCNC(=N)N)C(=O)N[C@@H](CCCCN)C(=O)N[C@@H](Cc1ccc(O)cc1)C(=O)N[C@@H](Cc1ccccc1)C(=O)N[C@@H](CCCCN)C(=O)N[C@@H](CO)C(=O)O)C(C)C | HaCaT | cell viability, MTT |  | 24 h |  | CC50 | 63.5 µM
CC(C)(c1ccc(O)cc1)c1ccc(O)cc1 | HepG2 spheroids | annexin V-FITC/PI flow cytometry |  | 0.1 µM, 24 h |  | necrotic cells | 16.8 ± 6.24%

Excerpt of the above:
SMILES | cell line | assay | system | setting | scale | quantity | value
Nc1nc2nc[nH]c2c(=S)[nH]1 | MRC-5, mock-infected | nuclei count |  | 96 h |  | LD50 | 25.8 µM
c1ccc2c(c1)ccc1c3ccccc3ccc21 | MCF7 AREc32 cells | cell confluency, IncuCyte imaging |  | 24 h, nominal concentration |  | IC10 | > 6.88 µM
